# Measured values of several laboratories.
# Each line is one published result; not all experiments were run side by side.
# LYN: Tyrosine-protein kinase Lyn (LYN, Homo sapiens, UniProt P07948)
# Sequence of UniProt P07948 (whole entry, looked up): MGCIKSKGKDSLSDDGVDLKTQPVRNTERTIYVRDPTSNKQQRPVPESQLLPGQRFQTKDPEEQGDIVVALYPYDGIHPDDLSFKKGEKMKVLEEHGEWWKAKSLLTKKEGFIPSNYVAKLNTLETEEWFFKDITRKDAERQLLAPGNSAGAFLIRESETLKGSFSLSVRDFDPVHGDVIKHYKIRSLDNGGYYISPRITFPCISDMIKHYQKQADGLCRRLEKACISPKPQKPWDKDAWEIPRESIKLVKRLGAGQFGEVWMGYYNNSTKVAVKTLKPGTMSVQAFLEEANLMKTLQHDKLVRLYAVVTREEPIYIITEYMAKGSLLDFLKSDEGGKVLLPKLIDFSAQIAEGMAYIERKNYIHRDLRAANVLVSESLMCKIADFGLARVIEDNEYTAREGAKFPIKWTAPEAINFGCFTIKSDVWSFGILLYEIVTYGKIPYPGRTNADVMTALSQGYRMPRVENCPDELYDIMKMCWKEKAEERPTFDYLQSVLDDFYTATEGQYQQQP
# LYN isoform B: Tyrosine-protein kinase Lyn, isoform B (LYN, Homo sapiens, UniProt P07948)
# LYN isoform A: Tyrosine-protein kinase Lyn, isoform A (LYN, Homo sapiens, UniProt P07948)
Structure (SMILES),target,assay,conditions,how to read,measurement,value
Cc1ccc(-c2c(/C=C(\C#N)C(=O)NC(C)C)n(CCCO)c3ncnc(N)c23)cc1,LYN,"cell-free assay, competition with immobilised ligand",1 µM,,remaining binding,93%
CCN1CCN(Cc2ccc(C(=O)Nc3ccc(C)c(NCc4cnc5[nH]ccc5c4OC)c3)cc2C(F)(F)F)CC1,LYN,"binding, competition with immobilised ligand",1 µM,,remaining binding,0.4%
Cc1cnc2nc1Nc1cccc(c1)COC/C=C/COCc1cc(ccc1OCCN1CCOCC1)N2,LYN,binding,0.1 µM,,remaining binding,86%
CNC1C[S+]2CC[S+]3CC[S+](C1)[Ru-4]321([N]=C=S)[n]2c3ccc(OC)cc3c3c4c(c5cc(F)c[n+]1c5c32)C(=O)NC4=O (stereo not drawn),LYN,KinomeScan,0.1 µM,baseline: untreated,remaining binding,96%
NC(=O)C[C@H]1CCc2sc3ncnc(O[C@H]4CC[C@H](N5CCOCC5)CC4)c3c21,LYN isoform B,radioisotope kinase,10 µM,,inhibition,5%
Cc1cccc(O[C@H]2CCC[C@@H](C(C)CNCc3ccncc3)C2)c1 (relative stereo),LYN isoform A,kinome profiling,10 µM,,inhibition,-11%
Nc1ncc(-c2cc(-c3cnn(CC(F)(F)F)c3)ncc2F)nc1C(=O)NC1CNCC(F)C1 (stereo not drawn),LYN isoform B,enzyme activity,1 µM,baseline: DMSO control,remaining activity,98.2%
O=C(Cc1ccc(OCc2ccccc2)cc1)NC1(C(=O)O)CCN(C(=O)c2ccc(-c3cccc(Cl)c3)cc2)CC1,LYN,"enzyme activity, inhibitor",10 µM,,activity vs control,121%
C=CC(=O)Nc1cccc(-c2cnc3[nH]cc(C(=O)NC(C)(C)C)c3n2)c1,LYN isoform A,"enzyme activity, inhibitor",0.1 µM,,inhibition,-7%
NC(=O)[C@@H](O)C[C@H]1CCc2sc3ncnc(O[C@H]4CC[C@H](N5CCOCC5)CC4)c3c21,LYN,"enzyme activity, inhibitor",10 µM,,inhibition,70%
CN1CCN(Cc2ccc(-c3ccc(CO[C@H]4CCC[C@@H]4NC(=O)c4cc(-c5cnn(C)c5)cnc4N)cc3)cc2)CC1,LYN,SelectScreen kinase profiling,0.1 µM,,inhibition,7%
CC(C)=CC1OC(C)(C)C2C=C3C(=O)C(Cl)=CC(O)C3C3C(O)C4OC4C(=O)C132 (stereo not drawn),LYN,"cell-free assay, competition with immobilised ligand",10 µM,,remaining binding,100%

# Some of these lines once more:
Structure (SMILES),target,assay,conditions,how to read,measurement,value
CC(C)=CC1OC(C)(C)C2C=C3C(=O)C(Cl)=CC(O)C3C3C(O)C4OC4C(=O)C132 (stereo not drawn),LYN,"cell-free assay, competition with immobilised ligand",10 µM,,remaining binding,100%
